Measurements of several laboratories.
Compare with care: the assays were run in different laboratories. ± gives the spread as reported.

SMILES	cell line	test	conditions	how to read	measurement	value
Cc1nn(C)c(O)c1-c1nc2cc(Cl)c(Cl)cc2[nH]c1=O	TF-1	annexin V flow cytometry	concentration not given, 24 h, treated at IC50		apoptotic cells	~30%
COc1cc(CNC(=O)C[C@H](C)CCC=C(C)C)ccc1OCc1cn(-c2ccc([N+](=O)[O-])cc2)nn1	786-0	SRB	10 µM, 48 h		growth	97%
CC[C@H](C(=O)N1CCCC[C@H]1C(=O)O[C@H](CCc1ccc(OC)c(OC)c1)c1cccc(OCC(=O)NCCC(=O)N2CCN(CCCOc3cc4c(Nc5ccc(F)c(Cl)c5)ncnc4cc3OC)CC2)c1)c1cc(OC)c(OC)c(OC)c1	HeLa FKBP12 F36V-PTPN2 knock-in	degrader	5 µM, 4 days		decrease in viability	48.5%
CC(=O)OC[C@H]1O[C@@H](Sc2sc(C(=O)c3ccc(Br)cc3)c(N)c2-c2nc3ccccc3s2)[C@H](OC(C)=O)[C@@H](OC(C)=O)[C@H]1OC(C)=O	OVCAR-8	SRB	10 µM, 48 h	baseline: untreated	growth	80.3%
Cc1cc(C)nc(NC(=S)N2CCN(c3ccc(C(F)(F)F)cn3)CC2)c1	MDA-MB-231 expressing PHGDH		concentration not given, serine- and glycine-free medium		glycine concentration	decreased
COc1cc(CNC(=O)C[C@H](C)CCC=C(C)C)ccc1O	MOLT-4 leukaemia cells	SRB	10 µM, 48 h		growth percent	83.4%
CN[C@@H](C)C(=O)N[C@H]1CN(C(=O)Cc2ccccc2)CC[C@H]2CC[C@@H](C(=O)NCc3ccc(Br)cc3)N2C1=O	SK-OV-3	cIAP1 degradation, western blot, measured: cIAP1	24 h		onset concentration	> 30 nM
C=C(CC)C(=O)c1ccc(OCC(=O)NCCCCNC(=O)COc2ccc(C(=O)C(=C)CC)c(Cl)c2Cl)c(Cl)c1Cl	HEK293	cell growth, CCK-8	72 h		IC10	~0.2 µM
COCCNCC(=O)N(CCCCN)CC(=O)N(CC(=O)N(CC(=O)N(CCCCN)CC(=O)N[C@@H](CCCCN)C(=O)N[C@H](CCCCN)C(=O)N[C@@H](CCSC)C(=O)NCCCC[C@H](NC(=O)[C@H](CCSC)NC(=O)[C@@H](CCCCN)NC(=O)[C@H](CCCCN)NC(=O)CN(CCCCN)C(=O)CN(C(=O)CN(Cc1ccc2c(c1)OCO2)C(=O)CN(CCCCN)C(=O)CNCCOC)[C@H](C)c1ccccc1)C(N)=O)[C@H](C)c1ccccc1)Cc1ccc2c(c1)OCO2	H358 ALDH+ cancer stem cells		concentration not given	baseline: ALDH+ cells over total H358	activity ratio	20 fold
CCCCCCCCCC[N]1C(=O)c2cccc[n+]2[Ir]1[Cl].Cc1c(C)c(C)[c-](C)c1C	SH-SY5Y	SRB	concentration not given, 3 h, together with: MPP+ 1 mM 24 h	baseline: MPP+ alone	cell viability	1.2 fold
COc1cc(CNC(=O)C[C@H](C)CCC=C(C)C)ccc1OCc1cn(-c2ccccc2F)nn1	786-0	SRB	10 µM, 48 h		growth	43.6%
Cc1ccc(NC(=O)c2c(C)oc3ccc(O)cc23)cc1	L-363	Western blot	10 µM, 24 h		MYC protein level	inactive
COc1cc2c(C=C3C(=O)Nc4ccccc43)c[nH]c2cc1C	ovarian cancer subpanel of NCI-60		48 h		TGI	7.76 µM
O=C1CCC(N2C(=O)c3ccc(N4CCC(C(=O)N5CCC(CCN6CCC(CNC(=O)c7cccc(-c8noc(C(F)(F)F)n8)c7)(c7nc(-c8ccccc8)cs7)CC6)CC5)CC4)cc3C2=O)C(=O)N1 (stereo not drawn)	DHL6	RNA sequencing	3 µM, 12 h		significantly changed genes	1830 genes
Cc1cc(-c2ccccc2)c2ccc3c(-c4ccccc4)cc(C)nc3c2n1.[Cl-].[Cl-].[Ru+2].c1ccc(-c2ccccn2)nc1.c1ccc(-c2ccccn2)nc1	A549, Caco-2, HT-29, MDA-MB-231			baseline: dark IC50 over light IC50	phototoxicity index	2 to 11
COc1cc(CNC(=O)C[C@H](C)CCC=C(C)C)ccc1OCc1cn(-c2ccccc2)nn1	IGROV-1 ovarian cancer cells	SRB	10 µM, 48 h		growth percent	88.8%
CC(C)c1cccc(C(C)C)c1-n1c(Cl)c(Cl)n(-c2c(C(C)C)cccc2C(C)C)c1=[Se].[Cl][Au]	LoVo MDR	MTT		baseline: LoVo MDR over LoVo	resistance factor	1.1
CCC(=C(c1ccc(Cl)cc1)c1ccc(OCCCN(C)C)cc1)c1ccc(OC)cc1	UACC-62	cell growth or viability, SRB			GI50	1.14 µM
CC(=O)O[C@H]1C(=O)[C@]2(C)[C@@H](OC(=O)[C@H](N)CSC3CC(=O)N(CCC(=O)Nc4ccc(-c5ccc(/N=N/c6ccc7c(S(=O)(=O)O)cc(S(=O)(=O)O)c(N)c7c6O)c(C)c5)cc4C)C3=O)C[C@H]3OC[C@@]3(OC(C)=O)[C@H]2[C@H](OC(=O)c2ccccc2)[C@]2(O)C[C@H](OC(=O)[C@H](O)[C@@H](NC(=O)c3ccccc3)c3ccccc3)C(C)=C1C2(C)C (stereo partly drawn)	HEK293T	flow cytometry	concentration not given, 4 h		cellular uptake	1.5%
C=CCc1ccc(O)c(-c2cc(CC=C)ccc2OCCCCCCCCCC[P+](c2ccccc2)(c2ccccc2)c2ccccc2)c1	UACC-62	autophagy, immunoblotting	0.5 µM, 48 h		LC3-II/LC3-I ratio	6.1
Cc1ccc2oc(-c3c4c(N)n[nH]c(=O)c4nn3-c3ccc(NC(=O)/C=C/CN(C)C)cc3)c(C)c2c1	SNU-16	Western blot	concentration not given		FGFR2 phosphorylation	inhibited
COc1cc(CNC(=O)C[C@H](C)CCC=C(C)C)ccc1OCc1cn(-c2cccc(Cl)c2)nn1	A549/ATCC	SRB	10 µM, 48 h		growth	81.8%
CN(C)c1cc2ccccc2c(N)n1	LX-2	qPCR	concentration not given, 6 h pre-treatment, together with: TGF-β1 5 ng/mL for 12 h		COL1A1 mRNA level	decreased
CO[C@@H]1[C@@H](O[C@@H]2O[C@H](C)[C@@H](O[C@H]3C[C@@](C)(O)[C@@H](OC(=O)/C=C/c4ccc(C(F)(F)F)cc4)[C@H](C)O3)[C@H](N(C)C)[C@H]2O)[C@@H](CC=O)C[C@@H](C)[C@@H](O[C@H]2CC[C@H](N(C)C)[C@@H](C)O2)/C=C/C=C/C[C@@H](C)OC(=O)C[C@H]1O	GES-1 and HGC-27	cell growth, CCK-8	72 h	baseline: IC50 GES-1 over HGC-27	selectivity index	2.44

SMILES	cell line	test	conditions	how to read	measurement	value
COc1ccc([C@@H]2CC(=O)c3c(O)cc(O[C@@H]4O[C@H](CO[C@@H]5O[C@@H](C)[C@H](O)[C@@H](O)[C@H]5O)[C@@H](O[C@H]5O[C@H](CO)[C@@H](O)[C@H](O)[C@H]5O)[C@H](O)[C@H]4O)cc3O2)cc1O	A549	Matrigel Transwell invasion	100 µg/mL, 24 h		invasion	31.6 ± 5.7%
Cc1nn(-c2ccc(S(=O)(=O)N[C@H](CO)CC(C)C)cc2)c2nn3nnnc3nc12	PC-3	AO/EB staining	2 µM, 24 h		apoptotic cells	14 ± 1.41%
CCC(=O)N(C)c1ccc(Cl)c(Cl)c1	mouse splenocytes		400 µM, 48 h, together with: anti-CD3/CD28	baseline: vehicle	live CD3+ T cells	63%
Cc1ccc(C(C)C)cc1.[Cl-].[Cl][Ru+].[Ru+].c1ccc(-c2cn(CCCCOc3ccccc3-c3nc4ccccc4s3)nn2)nc1	MCF7	annexin V/PI flow cytometry	4 µM, 24 h		early apoptotic cells	13.2%
COc1cc(C(=O)c2[nH]c(N)nc2-c2cccs2)cc(OC)c1OC	A549 cells	scratch wound healing	200 nM		migration rate	1.1 ± 0.1 µm/h
CO[C@@H]1[C@@H](O[C@@H]2O[C@H](C)[C@@H](O[C@H]3C[C@@](C)(O)[C@@H](OC(=O)Nc4ccc(C)cc4)[C@H](C)O3)[C@H](N(C)C)[C@H]2O)[C@@H](CC=O)C[C@@H](C)[C@@H](O[C@H]2CC[C@H](N(C)C)[C@@H](C)O2)/C=C/C=C/C[C@@H](C)OC(=O)C[C@H]1O	GES-1 and HGC-27	cell growth, CCK-8	72 h	baseline: IC50 GES-1 over HGC-27	selectivity index	33.1
COc1cc(CNC(=O)C[C@H](C)CCC=C(C)C)ccc1OCc1cn(-c2ccc(Br)cc2)nn1	MDA-MB-231/ATCC	SRB	10 µM, 48 h		growth	80.6%
CC/C=C\C/C=C\C/C=C\C/C=C\C/C=C\C/C=C\CCC(=O)Nc1ccn(C2OC(CO)C(O)C2(F)F)c(=O)n1 (stereo not drawn)	UACC-62	NCI60 screen			TGI	12.5 µM
CC(C)c1cccc(C(C)C)c1-n1ccn(-c2c(C(C)C)cccc2C(C)C)c1=[Se].[Cl][Au]	LoVo MDR	MTT		baseline: LoVo MDR over LoVo	resistance factor	2
COc1ccc(CC2COC(=O)C2Cc2ccc3c(c2)OCO3)cc1OC (mixture of isomers)	A2780cis (cisplatin-resistant)	Western blot, measured: topoisomerase II	3.25 µM, 48 and 72 h	baseline: 0 h control	protein level	decreased
COc1ccc(/C=C/C2=[N+]3C(=C(CO)c4c(C)cc(/C=C/c5ccc(OC)cc5)n4[B-]3(F)F)C(C)=C2C=O)cc1	RPE-1	resazurin	together with: 645 nm light	baseline: dark over light IC50	phototoxicity index	27 ± 5
COc1cc(CNC(=O)C[C@H](C)CCC=C(C)C)ccc1OCc1cn(-c2cccc(C(F)(F)F)c2)nn1	MCF7 breast cancer cells	SRB	10 µM, 48 h		growth percent	56.8%
CO[C@@H]1[C@@H](O[C@@H]2O[C@H](C)[C@@H](O[C@H]3C[C@@](C)(O)[C@@H](O)[C@H](C)O3)[C@H](N(C)C)[C@H]2O)[C@@H](CC=O)C[C@@H](C)[C@@H](O[C@H]2CC[C@H](N(C)C)[C@@H](C)O2)/C=C/C=C/C[C@@H](C)OC(=O)C[C@H]1OC(=O)c1ccc(C(C)(C)C)cc1	GES-1 and HGC-27	cell growth, CCK-8	72 h	baseline: IC50 GES-1 over HGC-27	selectivity index	3.92
CCc1cccc(CC)c1NC(=O)c1nn(C)c2c1CCc1cnc(Nc3ccc(N4CCN(C)CC4)cc3OC)nc1-2	HeLa I598F H2B-YFP	mitotic checkpoint, live cell imaging	together with: nocodazole		concentration for full checkpoint override	200 nM
O=Cc1c(O)ccc2ccccc12	HUVEC	RNA sequencing, measured: CHAC1	75 µM, 24 h	baseline: DMSO	log2 fold change	3.25
Cc1ccc2nc(-c3ccccc3)c(CN3CCOCC3)n2c1	CRL8155	cell growth or viability	48 h		EC50	> 50 µM
O=C(c1ccc2ccccc2c1)c1cn(-c2ccccc2)nc1C1=Nn2c(Cc3nnc4n3N=C(c3nn(-c5ccccc5)cc3C(=O)c3ccc5ccccc5c3)CS4)nnc2SC1	MCF7 cells	annexin V/PI flow cytometry	0.39 µM, 48 h		total apoptotic cells	43.3%
O=C1c2c(O)cc(O)cc2-c2c(-c3ccc(O)cc3)oc3cc(O)cc1c23	MCF7 cells	label-free MS proteomics	10 µM		number of proteins affected	< 200
COc1cc(CNC(=O)C[C@H](C)CCC=C(C)C)ccc1OCc1cn(-c2ccc(F)cc2)nn1	A549/ATCC	SRB	10 µM, 48 h		growth	76.8%
FC(F)(F)c1ccnc(-c2cc(C(F)(F)F)ccn2)c1.FC(F)(F)c1ccnc(-c2cc(C(F)(F)F)ccn2)c1.[Cl-].[Cl-].[Ru+2].c1csc(-c2ccc(-c3ccc(-c4ccc(-c5nc6c7cccnc7c7ncccc7c6[nH]5)s4)s3)s2)c1	SK-MEL-28	cell viability	normoxia, together with: green light 523 nm, 100 J/cm2	baseline: dark EC50 over light EC50	phototherapeutic index	815
CCC/C(=C\C1=C(F)C(=O)c2ccccc2C1=O)C(=O)N(CC)CC	Pa03C cells	HIF1α reporter gene, luciferase reporter	24 h, 1% oxygen hypoxia		EC50	12.6 ± 2.11 µM
CC(C)C1=C(O)C(=O)C2=C(C1=O)[C@H](O)[C@@H](O)[C@H]1C(C)(C)CCC[C@]21C	NCI-H460/R P-gp overexpressing	MTT	72 h		GI50	25 ± 2 µM
CC1(C)C2CC[C@]3(C)[C@H](C(=O)C=C4[C@@H]5C[C@@](C)(C(=O)N6CCN(C(=O)Cc7ccc(Cl)cc7)CC6)CC[C@]5(C)CC[C@]43C)[C@@]2(C)CC[C@@H]1OC(=O)Cc1ccc(Cl)cc1 (stereo partly drawn)	KARPAS-299	cell growth or viability, MTT	20 µg/mL		inhibition	0%
CCCCCC(C)(O)/C=C/C=C\C=C\C=C\[C@@H](O)[C@@H](O)CCCC(=O)OC (mixture of isomers)	human neutrophils	chemotaxis, antagonist	10 nM, 30 min, 37 °C, together with: MMK-1 1 nM		inhibition	~78%

For quick reference, copied from above:
SMILES	cell line	test	conditions	how to read	measurement	value
COc1cc(C(=O)c2[nH]c(N)nc2-c2cccs2)cc(OC)c1OC	A549 cells	scratch wound healing	200 nM		migration rate	1.1 ± 0.1 µm/h
CO[C@@H]1[C@@H](O[C@@H]2O[C@H](C)[C@@H](O[C@H]3C[C@@](C)(O)[C@@H](OC(=O)Nc4ccc(C)cc4)[C@H](C)O3)[C@H](N(C)C)[C@H]2O)[C@@H](CC=O)C[C@@H](C)[C@@H](O[C@H]2CC[C@H](N(C)C)[C@@H](C)O2)/C=C/C=C/C[C@@H](C)OC(=O)C[C@H]1O	GES-1 and HGC-27	cell growth, CCK-8	72 h	baseline: IC50 GES-1 over HGC-27	selectivity index	33.1
COc1cc(CNC(=O)C[C@H](C)CCC=C(C)C)ccc1OCc1cn(-c2ccc(Br)cc2)nn1	MDA-MB-231/ATCC	SRB	10 µM, 48 h		growth	80.6%
CC/C=C\C/C=C\C/C=C\C/C=C\C/C=C\C/C=C\CCC(=O)Nc1ccn(C2OC(CO)C(O)C2(F)F)c(=O)n1 (stereo not drawn)	UACC-62	NCI60 screen			TGI	12.5 µM
CC(C)c1cccc(C(C)C)c1-n1ccn(-c2c(C(C)C)cccc2C(C)C)c1=[Se].[Cl][Au]	LoVo MDR	MTT		baseline: LoVo MDR over LoVo	resistance factor	2
